# Published values gathered from unrelated publications.
# Protocols differ between the studies behind these lines. Numbers after ± are the reported error.
Substance,cell line,assay,test system,setting,how to read,quantity,value
CC(C)c1ccc2c(c1)CC[C@H]1[C@](C)(CN)CCC[C@]21C,SK-MEL-24,"cell growth or viability, MTS",,72 h,,IC50,1.47 µM
PPAIIIT,"rat hippocampal neurons, AKAP150 RNAi, AKAP79 expression",FRAP,"peptide, dendritic spines","dose not given, 32 °C",,mobile fraction CN-YFP,61.6 ± 0.7%
CC(C)C[C@H](NC(=O)[C@H](Cc1ccccc1)NC(=O)c1cnccn1)B(O)O,U-266,"cell growth or viability, flow cytometry",,2.5 nM,,viability,85%
COc1cc(/C=C/C(=O)CC(=O)/C=C/c2ccc(O)c(OC)c2)ccc1O,HepG2,Seahorse respirometry,,"concentration not given, 1 h, dosed at MMP IC50, with: 1 µM FCCP",reference: basal,OCR,111 ± 2.82%
CC[C@H](C)[C@H](NC(=O)[C@@H](NC(=O)[C@H]1CCCN1)C(C)C)C(=O)N[C@@H](C)C(N)=O,PC-12,"Aβ42-induced neurotoxicity, inhibitor, MTT",,"concentration not given, 6 h, 37 °C, peptide to Aβ42 1:2, with: Aβ42 2 µM",reference: untreated cells,viability,83.5%
CC(C(O)c1ccc(O)cc1)N1CCC(Cc2ccccc2)CC1.CC(C(O)c1ccc(O)cc1)N1CCC(Cc2ccccc2)CC1.O=C(O)C(O)C(O)C(=O)O (stereo not drawn),HEK293 expressing MOR,"morphine-induced cAMP overshoot, HTRF cAMP",,"1 µM, with: NKH 477 25 nM",reference: morphine control,efficacy,87%
Nc1cccc2c(N)cccc12,HepG2,Seahorse respirometry,,"concentration not given, 1 h, dosed at MMP IC50, with: 1 µM FCCP",reference: basal,OCR,194 ± 2.33%
COC(=O)/C=C/c1cc(O)ccc1O,A549 EGFR reporter cells,EGFR-induced granule formation,,"10 µM, with: 500 nM EGF",negative means activation,inhibition,-24%
CCC(=O)c1ccc2c(c1)N(CCCN(C)C)c1ccccc1S2,HEK293 expressing MOR,"morphine-induced cAMP overshoot, HTRF cAMP",,"1 µM, with: NKH 477 25 nM",reference: morphine control,Emax,41%
O=c1cc(-c2ccccc2)oc2cc(O)cc(O)c12,J-Lat 10.6 cells,refers to: GFP-positive cells,,"10 µM, 21 days, spontaneous, after wash-out",reference: DMSO 0.1%,inhibition of latency reversal,87.8 ± 9.1%
C=C1[C@@H](C)[C@H]2[C@H](Cc3ccccc3)NC(=O)[C@]23[C@H](OC(C)=O)/C=C/[C@@](C)(O)C(=O)[C@@H](C)C/C=C/[C@H]3[C@@H]1O,MCEC mouse,transfection reporter gene,,"5.0 µg/mL, 1 h",reference: vehicle,inhibition,89.3%
Brc1ccc(Oc2ccc(Br)cc2Br)c(Br)c1,human iPSC-derived cardiomyocytes,calcium flux,,"10 µM, 30 min",,inotropic effect,positive
O=C(/C=C/c1ccc2c(c1)OCO2)NCCc1ccc(Cl)cc1,Raji,"TPA-induced EBV-EA expression, inhibitor",,"100-fold molar ratio to TPA, 48 h, with: TPA 32 pmol/mL",reference: TPA control,EBV-EA positive cells,83 ± 2.4%
amyloid beta-42 Met35-sulfone,rat primary cortical neurons,LDH release,,"10 µM, 48 h",reference: medium control,viability decrease,24 ± 3%
CCCN(CCC)CCc1cccc2c1CC(=O)N2,HEK293 expressing MOR,"morphine-induced cAMP overshoot, HTRF cAMP",,"1 µM, with: NKH 477 25 nM",reference: morphine control,Emax,92%
O=c1c(-c2ccc(O)cc2)coc2cc(O)cc(O)c12,HepG2,Seahorse respirometry,,"concentration not given, 1 h, dosed at MMP IC50, with: 1 µM FCCP",reference: basal,OCR,90.29 ± 0.37%
ClC1=C(Cl)[C@]2(Cl)[C@@H]3[C@@H]4C[C@@H]([C@H]5O[C@@H]45)[C@@H]3[C@@]1(Cl)C2(Cl)Cl,human iPSC-derived cardiomyocytes,beat peak frequency,,30 min,,lowest effective concentration,3 µM
ryanodine,rat hypothalamic neurons,fura-2 imaging,,"5 µM, 15 min, with: INSL7 C-peptide 100 nM",,cytosolic Ca2+,no effect
O=P1(N(CCCl)CCCl)NCCCO1 (stereo not drawn),U-87 MG,"cell growth or viability, WST-1",,"500 µM, 24 h",,viability,56.3%
CC[C@H](C)[C@H](NC(=O)[C@@H](NC(=O)[C@H](N)Cc1ccccc1)C(C)C)C(=O)N[C@@H](C)C(N)=O,PC-12,"Aβ42-induced neurotoxicity, inhibitor, MTT",,"concentration not given, 6 h, 37 °C, peptide to Aβ42 1:2, with: Aβ42 2 µM",reference: untreated cells,viability,95.2%
NNc1ncc(S(=O)(=O)NC(=S)Nc2ccccc2)c(=O)[nH]1,RAW264.7,"qPCR, refers to: IL-6",,"concentration not given, compound at quarter of IC50, with: LPS 1 µg/mL",reference: LPS control,mRNA level,0.131 ± 0.01 fold change
[Met(O2)35]Aβ40,rat primary cortical neurons,TUNEL,,"10 µM, 48 h",,apoptotic cells,14.3 ± 0.6%
CC[C@H](C)[C@H](NC(=O)[C@H](CCCCN)NC(=O)[C@@H](NC(=O)[C@H](CCC(N)=O)NC(=O)[C@H](CCCNC(=N)N)NC(=O)[C@@H](N)CC(=O)O)[C@@H](C)CC)C(=O)N[C@@H](Cc1c[nH]c2ccccc12)C(=O)N[C@@H](Cc1ccccc1)C(=O)N[C@@H](CCC(N)=O)C(=O)N[C@@H](CC(N)=O)C(=O)N[C@@H](CCCNC(=N)N)C(=O)N[C@@H](CCCNC(=N)N)C(=O)N[C@@H](CCSC)C(=O)N[C@@H](CCCCN)C(=O)N[C@@H](Cc1c[nH]c2ccccc12)C(=O)N[C@@H](CCCCN)C(=O)N[C@@H](CCCCN)C(=O)N[C@H](C(=O)N[C@@H](C)C(=O)N[C@@H](CC(C)C)C(=O)N[C@@H](CC(=O)O)C(=O)N[C@@H](Cc1c[nH]c2ccccc12)C(=O)N[C@@H](CO)C(=O)N[C@@H](Cc1c[nH]c2ccccc12)C(=O)N[C@@H](CC(C)C)C(=O)N[C@@H](CCC(N)=O)C(=O)N[C@H](C(=O)N[C@@H](CCC(=O)O)C(=O)O)[C@@H](C)O)[C@@H](C)O,rheumatoid arthritis synovial fibroblasts,,,"concentration not given, with: IL-1β",,p38 MAPK pathway activation,no effect
C=CCN1CC[C@]23CCCC[C@H]2[C@H]1Cc1ccc(O)cc13,HEK293 expressing MOR,"morphine-induced cAMP overshoot, HTRF cAMP",,"1 µM, with: NKH 477 25 nM",reference: morphine control,Emax,70%
CC[C@H](C)[C@H](NC(=O)[C@@H]1CCCN1C(=O)[C@@H]1CCCN1)C(=O)N[C@@H](C)C(N)=O,PC-12,"Aβ42-induced neurotoxicity, inhibitor, MTT",,"concentration not given, 6 h, 37 °C, peptide to Aβ42 1:2, with: Aβ42 2 µM",reference: untreated cells,viability,60.7%
CCOP(=S)(OCC)Oc1ccc([N+](=O)[O-])cc1,human iPSC-derived cardiomyocytes,calcium flux,,"10 µM, 30 min",,inotropic effect,positive
c1ccc(Nc2ccc3ccccc3c2)cc1,HepG2,Seahorse respirometry,,"concentration not given, 1 h, dosed at MMP IC50, with: 1 µM FCCP",reference: basal,OCR,177.5 ± 1.62%
CC(C)(c1cc(Br)c(O)c(Br)c1)c1cc(Br)c(O)c(Br)c1,human iPSC-derived cardiomyocytes,beat peak frequency,,30 min,,lowest effective concentration,30 µM
O=C1C2CC=CCC2C(=O)N1SC(Cl)(Cl)Cl (stereo not drawn),HepG2,Seahorse respirometry,,"concentration not given, 1 h, dosed at MMP IC50, with: 1 µM FCCP",reference: basal,OCR,62.2 ± 0.91%
CN(C)c1cc2c(Nc3ccc4c(cnn4Cc4ccccc4)c3)ncnc2cn1,A549 EGFR reporter cells,EGFR-induced granule formation,,"10 µM, with: 500 nM EGF",negative means activation,inhibition,89%
